Experimental data of several laboratories.
Each numbered part is a random draw from the data of one study; scales do not carry over between parts.
Chain of UniProt Q92985 (whole entry, unmodified, looked up): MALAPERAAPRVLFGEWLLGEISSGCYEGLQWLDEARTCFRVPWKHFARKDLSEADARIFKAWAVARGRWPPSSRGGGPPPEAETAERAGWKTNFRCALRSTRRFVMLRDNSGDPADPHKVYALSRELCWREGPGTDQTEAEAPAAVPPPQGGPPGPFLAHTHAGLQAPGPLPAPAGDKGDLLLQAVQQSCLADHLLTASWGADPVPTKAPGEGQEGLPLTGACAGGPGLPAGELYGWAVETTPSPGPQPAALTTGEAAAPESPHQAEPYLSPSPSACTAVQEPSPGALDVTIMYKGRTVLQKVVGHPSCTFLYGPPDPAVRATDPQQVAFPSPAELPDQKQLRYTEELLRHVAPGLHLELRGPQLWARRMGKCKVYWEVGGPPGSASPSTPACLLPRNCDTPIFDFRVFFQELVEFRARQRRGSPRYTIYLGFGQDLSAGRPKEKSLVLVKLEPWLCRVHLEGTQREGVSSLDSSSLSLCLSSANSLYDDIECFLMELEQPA

Study 1
Target: Histone acetyltransferase KAT6A, both winged helices, GST fusion (KAT6A, Homo sapiens, UniProt Q92794, residues 1-181)
Method: protein binding microarray
Form: double-stranded DNA, one strand shown
Sample: in vitro
Concentration: not given
Setting: 8-mer, flanks averaged, mean of 2 arrays, mostly near background
Baseline: not given
Direction: higher = stronger binding
Residues (chain): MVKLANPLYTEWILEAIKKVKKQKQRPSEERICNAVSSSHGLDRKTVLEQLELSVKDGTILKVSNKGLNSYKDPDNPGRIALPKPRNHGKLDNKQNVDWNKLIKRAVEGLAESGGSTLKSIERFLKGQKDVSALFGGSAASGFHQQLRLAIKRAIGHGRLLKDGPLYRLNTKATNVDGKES
Strand | E-score
AAGCATCT | -0.0759
AGGTCAGC | 0.058
CGATATAG | 0.0741
CTGAATGA | -0.0936

Study 2
Target: Sal-like protein 4, full length isoform A (SALL4, Homo sapiens, UniProt Q9UJQ4, residues 1-1053)
Chain of UniProt Q9UJQ4 (whole entry, looked up): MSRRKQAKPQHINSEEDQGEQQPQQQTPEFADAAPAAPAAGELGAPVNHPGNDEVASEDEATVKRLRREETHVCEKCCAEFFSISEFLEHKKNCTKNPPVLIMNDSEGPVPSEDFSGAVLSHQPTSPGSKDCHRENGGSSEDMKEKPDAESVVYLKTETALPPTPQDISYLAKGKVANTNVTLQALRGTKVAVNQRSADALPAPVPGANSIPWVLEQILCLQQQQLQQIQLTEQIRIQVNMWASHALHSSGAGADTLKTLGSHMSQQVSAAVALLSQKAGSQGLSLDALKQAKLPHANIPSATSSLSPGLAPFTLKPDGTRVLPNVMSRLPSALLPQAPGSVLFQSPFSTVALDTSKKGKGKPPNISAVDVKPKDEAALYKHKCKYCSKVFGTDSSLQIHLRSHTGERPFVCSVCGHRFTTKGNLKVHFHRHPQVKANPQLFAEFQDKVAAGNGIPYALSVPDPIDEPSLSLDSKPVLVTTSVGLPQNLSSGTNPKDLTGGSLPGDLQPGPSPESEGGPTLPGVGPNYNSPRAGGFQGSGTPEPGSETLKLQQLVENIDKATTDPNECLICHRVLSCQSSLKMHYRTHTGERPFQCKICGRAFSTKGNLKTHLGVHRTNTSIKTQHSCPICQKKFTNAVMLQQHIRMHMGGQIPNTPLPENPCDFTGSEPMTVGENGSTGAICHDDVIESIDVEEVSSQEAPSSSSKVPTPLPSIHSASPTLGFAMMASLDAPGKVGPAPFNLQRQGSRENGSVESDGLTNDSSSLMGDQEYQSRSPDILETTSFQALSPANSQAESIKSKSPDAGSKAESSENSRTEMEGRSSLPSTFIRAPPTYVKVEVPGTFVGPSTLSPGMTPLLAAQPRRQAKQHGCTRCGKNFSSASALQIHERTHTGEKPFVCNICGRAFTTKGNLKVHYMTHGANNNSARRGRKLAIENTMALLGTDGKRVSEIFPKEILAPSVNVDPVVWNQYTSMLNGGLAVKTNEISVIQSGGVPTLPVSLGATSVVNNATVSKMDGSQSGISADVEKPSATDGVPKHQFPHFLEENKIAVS
Method: universal PBM
Form: double-stranded DNA, one strand shown
Sample: in vitro
Concentration: 600 nM
Setting: 8-mer, flanks averaged, mean of replicates
Direction: higher = stronger binding
Strand | E-score
CACAGTGA | -0.0388
TCCGGAAA | -0.0875
AAAATGTG | 0.251
CGAAATGC | -0.0106
ACTAAACT | 0.132

Further values, each from its own experiment
IRF5 S451D/S453D/S456D/S462D full length, phosphomimetic: Interferon regulatory factor 5, full length, phosphomimetic (IRF5, Homo sapiens, UniProt Q13568-2, residues 1-514, S451D/S453D/S456D/S462D)
Molecule | target | assay | test system | conditions | scale | quantity | result
GCCTAGCACGACGGTTGCGGTTTCGGGACGTGCTAGGTCTTGATTCGCTTGACGCTGCTG | IRF5 S451D/S453D/S456D/S462D full length, phosphomimetic | protein-binding microarray | double-stranded DNA, one strand shown, in vitro | 940 nM top, 60-bp whole probe, together with: salmon DNA 0.4 mg/ml | baseline: random background probes, higher = stronger binding | fitted relative affinity | 3.83 z-score
PhoQ, residues 284 288 289 292 302 303 SLGVVW | PhoP, residues 12 14 15 18 19 DLLYY (Escherichia coli, UniProt P23836) | Sort-seq, measured: YFP reporter | E. coli | PhoQ-PhoP variant library, together with: 10 µM Mg2+ | baseline: high Mg2+ state, higher = stronger signaling | fold induction | 2.11
GCCTAGCACGACGGTCTCGGTATCGGTACGTGCTAGGTCTTGATTCGCTTGACGCTGCTG | Interferon regulatory factor 7, full length, phosphomimetic (IRF7, Homo sapiens, UniProt Q92985, residues 1-503, S471D/S472D/S475D/S476D/S477D/S483D/S484D/S487D) | protein-binding microarray | double-stranded DNA, one strand shown, in vitro | 2200 nM top, 60-bp whole probe, together with: salmon DNA 0.4 mg/ml | baseline: random background probes, higher = stronger binding | fitted relative affinity | 0.237 z-score
GCCTAGCACTGACGGCTCACTCCGTTGGAGTGCTAGGTCTTGATTCGCTTGACGCTGCTG | IRF5 S451D/S453D/S456D/S462D full length, phosphomimetic | protein-binding microarray | double-stranded DNA, one strand shown, in vitro | 940 nM top, 60-bp whole probe, together with: salmon DNA 0.4 mg/ml | baseline: random background probes, higher = stronger binding | fitted relative affinity | -0.583 z-score
GCCTAGCACTTAGATATCGGACTGGGTTAGTGCTAGGTCTTGATTCGCTTGACGCTGCTG | IRF5 S451D/S453D/S456D/S462D full length, phosphomimetic | protein-binding microarray | double-stranded DNA, one strand shown, in vitro | 940 nM top, 60-bp whole probe, together with: salmon DNA 0.4 mg/ml | baseline: random background probes, higher = stronger binding | fitted relative affinity | -0.124 z-score
